Experimental data collected from several papers.
Each line is one published result; not all experiments were run side by side. Values joined by “and” are separate records of one study, mostly repeats; a detail may differ. Numbers after ± are the reported error.

O=C(O)C[C@H](O)C[C@H](O)/C=C/c1c(C2CC2)nc2ccccc2c1-c1ccc(F)cc1  AUC(0-27 h) (male Sprague Dawley rat, NASH, plasma; oral, 2.5 mg/kg, geometric mean, with: vehicle): 9.1 µM·h
O=C(O)c1ccc(O)cc1  IC50 (cysteine peptide Ac-RFAACAA-COOH; peptide depletion, DPRA RapidFire-MS/MS; 24 h, pH 7.5, room temperature, with: 5.0 µM cysteine peptide): 127 µM
O=C1N=C(N2CCOCC2)CN1c1ccc(Cl)cc1  apparent volume of distribution (Vz/F) (beagle dog, male; oral, 30 mg/kg, tablets, fasted): 0.68 L/kg
O=C1c2c(O)cc(O)cc2O[C@H](c2cc(O)c(O)c(O)c2)[C@H]1O  Papp A→B (mass spectrometry; Caco-2; 40 µM, 6 h): 17.3 ×10⁻⁶ cm/s
O=C(O)c1cc(-c2ccc(F)cc2F)ccc1O  thermodynamic solubility (shake-flask; PEG400; 37 °C): 169 ± 27.3 mg/g
CC(C)CCCCC(=O)N[C@@H](CCN)C(=O)N[C@H](C(=O)N[C@@H](CCN)C(=O)N[C@H]1CCNC(=O)[C@H]([C@@H](C)O)NC(=O)[C@H](CCN)NC(=O)[C@H](CCN)NC(=O)[C@H](CC(C)C)NC(=O)[C@@H](Cc2ccccc2)NC(=O)[C@H](CCN)NC1=O)[C@@H](C)O  mid-interval concentration (UPLC-MS/MS; intensive care patients Overall, plasma; iv, dose not given, 6 h post-dose, steady state, polymyxin B dosing): 600 ± 200 ng/mL
COc1c(OCCCN2CCOCC2)ccc2c1N=C(NC(=O)c1cnc(N)nc1)N1CCN=C21  AUC(0-25 h) (human patients, plasma; intravenous, 0.6 mg/kg 3 weeks on 1 week off, cycle 1 day 15, with: refametinib 30 mg twice daily oral): 1250 ng·h/mL
Cc1ccco1  Km (metabolic activation to acetaldehyde; male Sprague-Dawley rats, pooled liver microsomes; 10 min, high concentrations): 195 µM
C[N+]1(CC(=O)NC2CCCCCCCCCCC2)CCCCC1  microsomal CLint (metabolic stability; male CD-1 mouse, liver microsomes; 1 µM, pH 7.4): 196 µL/min/mg
Cn1c(-c2ccc(C(N)=O)cc2F)nnc1C(C)(C)Oc1c(F)cc(Cl)cc1F  AUC(0-inf) range (young non-Japanese subjects, plasma; oral, 50 mg single dose, day 1): 4950 to 19800 ng·h/mL
C/C=C/C=C/C=C/CC/C=C/C(=O)NCC(C)(C)O  recovery (rat, small intestine site 4 contents; oral, dose not given, 4 h, no β-glucuronidase treatment; baseline: ingested amount): 0.02%
C[C@]12CC[C@@H]3c4ccc(O)cc4CC[C@H]3[C@@H]1C[C@@H](O)[C@@H]2O  median serum concentration (GC-MS; breast cancer women on NSAI, serum; vaginal, 0.03 mg, 0.5 h, day 0): 0 ng/mL
CCOC(=O)c1ccccc1C(=O)OCC  peptide depletion (cysteine peptide Ac-RFAACAA-COOH; DPRA RapidFire-MS/MS; 24 h, pH 7.5, with: 5.0 µM cysteine peptide): inactive
CCN(CC)C(=S)SSC(=S)N(CC)CC  thermodynamic solubility (shake-flask; soybean oil; 37 °C): 21.4 ± 1.07 mg/g
CCn1c2ccccc2c2cc(-n3nncc3-c3ccccc3)ccc21  Tmax (female BALB/c mouse, kidney; intraperitoneal, 10 mg/kg, single dose): 40.2 min
CS(=O)(=O)OC[C@H](O)[C@@H]1CO1  concentration in red blood cells (Wistar rat, female, red blood cells; intraperitoneal, 500 mg/kg treosulfan, 1 h): 11 µM and 15 µM and 30 µM
Cc1nc2cccc(OCC(C)(C)C(=O)NC(C)C)c2c(N)c1C(=O)O  AUC(0-last) (Sprague-Dawley rat, female, plasma; oral gavage, 30 mg/kg, day 1): 95 ± 20.4 ng·h/mL
C=CC(N)CCC(=O)O (centres unmarked)  Tmax (median) (male Sprague-Dawley rat, plasma; oral, 10 mg/kg, formulation 8, with: infant formula 1500 mg/kg): 40.2 min
Cc1cc(-n2c(=O)[nH]c(=O)n(C)c2=O)ccc1Oc1ccc(SC(F)(F)F)cc1  thermodynamic solubility (shake-flask; soybean oil; 37 °C): 0.64 ± 0.04 mg/g
CC(=O)Oc1ccccc1C(=O)O  QTc change (male Hartley guinea pig, anaesthetized; intravenous infusion, 1 mg/kg, 10 min infusion; baseline: baseline): 0.5 ± 0.8%

Excerpt of the above:
CCN(CC)C(=S)SSC(=S)N(CC)CC  thermodynamic solubility (shake-flask; soybean oil; 37 °C): 21.4 ± 1.07 mg/g
